Measurements pooled from the literature.
A part holds a random share of what one study measured. Positions count from the first letter of the parent shown.

Set 1
Target: Sal-like protein 4, full length isoform B (SALL4, Homo sapiens, UniProt Q9UJQ4-2, residues 1-616)
Method: universal PBM
Form: double-stranded DNA, one strand shown
Medium: in vitro
Tested at: not given
Setting: 8-mer, flanks averaged, mean of replicates
Direction: higher = stronger binding
Strand | E-score
AGGTGCTA | 0.111
CTATAGTC | 0.118
ACTTCTAT | 0.166
ACACCTGT | -0.0233
GACGTTAC | 0.0257
GACCCGAA | -0.25
CCCCCGGG | -0.437
GATCAATA | 0.363
ACCTTGGA | -0.137
CTTTAATC | 0.16
CTTACAAC | 0.206
ACCAGGAT | -0.025
AGCACGCC | -0.251
GGTACTAA | -0.0321
GACATTAC | 0.146
GCTGGTAC | -0.189
CCAAAGGA | -0.133
AATACCCA | 0.193
CATTCCAA | 0.0435
CAAAACTG | 0.122
TAAAGAAA | 0.279
AGAATATG | 0.298

Set 2
Target: ABI1, truncated, D143A, DHFR fusion (Arabidopsis thaliana)
Method: DHFR PCA, deep sequencing
Medium: yeast
Setting: methotrexate growth selection, single substitutions
Added: (+)-ABA 2500 µM
Relative to: wild-type fitted maximum
Direction: higher = stronger binding
Starting sequence: PYL1, truncated, DHFR fusion (Arabidopsis thaliana); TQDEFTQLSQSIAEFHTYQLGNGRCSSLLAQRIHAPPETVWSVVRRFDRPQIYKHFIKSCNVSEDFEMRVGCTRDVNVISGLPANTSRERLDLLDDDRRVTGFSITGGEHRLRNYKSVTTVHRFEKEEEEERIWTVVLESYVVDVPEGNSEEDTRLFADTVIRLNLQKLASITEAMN; partner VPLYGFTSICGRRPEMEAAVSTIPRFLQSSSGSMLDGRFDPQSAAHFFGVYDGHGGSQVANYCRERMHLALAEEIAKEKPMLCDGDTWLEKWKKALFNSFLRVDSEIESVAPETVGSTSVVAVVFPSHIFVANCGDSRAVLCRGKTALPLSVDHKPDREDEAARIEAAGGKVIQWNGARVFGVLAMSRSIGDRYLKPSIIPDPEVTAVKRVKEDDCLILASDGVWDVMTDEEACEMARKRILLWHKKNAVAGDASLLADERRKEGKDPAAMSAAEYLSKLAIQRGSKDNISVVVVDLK
Change | relative binding score [%]
T106V | 108
R98C | 95.5
I79K | 96.6
F157N | 2.57
R132A | 105
I57Q | 83.7
E129I | 107
G81L | 42.7
D3F | 93.9
Q2T | 95.1
N114K | 97.8
R132S | 105
S11I | 87.6
D144T | 90.5
G23A | 93.4
N85R | 97.7
R69T | 99.8
T135N | 22.2

Set 3
Target: Histone acetyltransferase KAT6A, both winged helices, GST fusion (KAT6A, Homo sapiens, UniProt Q92794, residues 1-181)
Method: protein binding microarray
Form: double-stranded DNA, one strand shown
Medium: in vitro
Tested at: not given
Setting: 8-mer, flanks averaged, mean of 2 arrays, mostly near background
Relative to: not given
Direction: higher = stronger binding
Residues (chain): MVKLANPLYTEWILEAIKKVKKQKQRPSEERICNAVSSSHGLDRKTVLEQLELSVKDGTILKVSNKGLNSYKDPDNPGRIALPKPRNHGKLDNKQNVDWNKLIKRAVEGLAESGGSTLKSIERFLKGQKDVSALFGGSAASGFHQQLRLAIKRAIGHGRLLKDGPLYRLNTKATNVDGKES
Strand | E-score
ACGTCAAC | 0.0526
GCACGTAA | 0.0588
GAAACGAC | -0.0362
GTAAGTCA | -0.0587
ATTCGATA | -0.0381
CCCGTACA | 0.143
GATGGAGC | -0.0438
CAGGTATG | -0.127
ACAGGTAA | -0.0635
AACGAGCT | -0.225
ATCATATC | 0.087
ACCATGTA | -0.0301
CATGTCTA | 0.056
GCCTACAC | -0.0845
ACCGCCGT | 0.331
CAGGCCAC | -0.0245
ATATCTTG | -0.102
CATGTGCG | 0.195
AAATGTGT | -0.0768
TCCCAGGA | -0.154
ATTAAGAG | -0.116
AAGTCGGC | 0.0677
CTATCATA | -0.0707
ATCTGGGG | -0.216
GTCGATAA | 0.0411

Set 4
Target: GDNF-inducible zinc finger protein 1, full length (GZF1, Homo sapiens, UniProt Q9H116, residues 1-711)
Method: protein-binding microarray
Form: hairpin DNA
Medium: in vitro
Tested at: not given
Setting: whole hairpin DNA, median over replicate spots
Relative to: not given
Direction: higher = stronger binding
Shared flanks, not repeated: GAGGCCA … TGGCCTCACACTC
Construct (chain): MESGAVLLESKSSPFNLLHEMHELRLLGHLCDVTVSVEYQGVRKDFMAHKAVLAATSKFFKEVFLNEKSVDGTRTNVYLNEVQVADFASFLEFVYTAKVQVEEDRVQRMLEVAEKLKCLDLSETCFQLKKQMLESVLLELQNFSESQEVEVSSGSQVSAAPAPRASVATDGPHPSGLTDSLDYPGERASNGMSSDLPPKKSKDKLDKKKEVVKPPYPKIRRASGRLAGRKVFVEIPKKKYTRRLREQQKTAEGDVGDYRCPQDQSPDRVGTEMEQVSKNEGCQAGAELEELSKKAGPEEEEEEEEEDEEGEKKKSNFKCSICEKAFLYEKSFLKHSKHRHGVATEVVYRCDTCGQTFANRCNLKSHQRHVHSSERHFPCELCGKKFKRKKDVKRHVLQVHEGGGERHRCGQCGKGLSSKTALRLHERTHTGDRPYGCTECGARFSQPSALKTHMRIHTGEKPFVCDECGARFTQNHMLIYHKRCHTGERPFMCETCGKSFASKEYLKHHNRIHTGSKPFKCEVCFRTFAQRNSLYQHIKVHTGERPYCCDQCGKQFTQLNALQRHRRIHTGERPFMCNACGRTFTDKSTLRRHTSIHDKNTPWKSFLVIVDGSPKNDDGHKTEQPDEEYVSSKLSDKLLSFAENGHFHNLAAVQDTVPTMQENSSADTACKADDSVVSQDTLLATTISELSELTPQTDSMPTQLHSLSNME
Strand | median fluorescence [a.u.]
TTACGGTTATGCCTCCTGGCATAACCGTAA | 443
TAACGGTAATGCCTCCTGGCATTACCGTTA | 533
TTACGGTACGGCCTCCTGGCCGTACCGTAA | 642
TTACGGTACTGCCTCCTGGCAGTACCGTAA (5mC at 16) | 632
TTACCGTAATGCCTCCTGGCATTACGGTAA (5mC at 32) | 715
TTACGGTCGTGCCTCCTGGCACGACCGTAA (5mC at 15 29) | 590
TTATGGTAATGCCTCCTGGCATTACCATAA | 373
TTACTGTAATGCCTCCTGGCATTACAGTAA | 355
TTACGGCGATGCCTCCTGGCATCGCCGTAA (5mC at 14 30) | 531
TTACGGCAATGCCTCCTGGCATTGCCGTAA (5mC at 14) | 504
CGACGGTAATGCCTCCTGGCATTACCGTCG (5mC at 36) | 723
TTACGGTAACGCCTCCTGGCGTTACCGTAA | 690
TTACCGTAATGCCTCCTGGCATTACGGTAA (5mC at 12) | 552
TTACGGTACGGCCTCCTGGCCGTACCGTAA (5mC at 16) | 611
TTCCGGTAATGCCTCCTGGCATTACCGGAA | 591

Set 5
Target: Hepatocyte nuclear factor 3-alpha (Foxa1, Mus musculus, UniProt P35582, residues 1-468, full length assumed)
Method: EMSA with sequencing
Form: double-stranded DNA, one strand shown
Medium: in vitro
Tested at: 10 and 20 nM
Setting: whole designed probe, mean of two concentrations, ends assumed
Relative to: negative control set to 0
Direction: higher = stronger binding
Shared flanks, not repeated: GTGAGCGGTGCCCATTGATGGGGAAC … TTTCACTGGGATCGTGGGGAC
Construct (chain): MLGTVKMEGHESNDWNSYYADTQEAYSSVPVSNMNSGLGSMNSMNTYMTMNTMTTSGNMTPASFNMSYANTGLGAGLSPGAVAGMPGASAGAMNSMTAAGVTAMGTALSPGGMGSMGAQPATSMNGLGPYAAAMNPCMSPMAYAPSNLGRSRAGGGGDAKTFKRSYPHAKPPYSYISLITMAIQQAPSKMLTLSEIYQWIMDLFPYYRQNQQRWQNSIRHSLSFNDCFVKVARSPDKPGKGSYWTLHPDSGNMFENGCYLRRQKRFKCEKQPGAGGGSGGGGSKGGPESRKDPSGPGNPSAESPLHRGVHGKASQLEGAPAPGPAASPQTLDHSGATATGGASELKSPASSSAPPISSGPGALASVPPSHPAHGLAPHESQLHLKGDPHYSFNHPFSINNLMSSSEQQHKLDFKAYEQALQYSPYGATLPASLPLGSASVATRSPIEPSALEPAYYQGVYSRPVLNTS
Strand | normalised bound fraction
AAATTGGTAATGACCATATTATCTGCTGGAAGCTTGGGAAGGAAAAGGGAAGTTGATTTGCTGATTTCTTACAATGAGTCAGTGATGTTATTATATTTACATATGACTAATTTAATTCTCAAAAATGCTGAGAAAATTAGACATTATCTTCATTTAACAGATGGGGAATATGATATGCAGTTACTAATGGCAG | 0.342 ratio
CAAGTTTGTGGTCCAGGAGCAACAGGTTATGCCATACAGCCTAGGTGTGTAGTAGGCTACACACCGTCTATGTTTGTGTTGTACACTCTTTGTGCAAACATTGTTGATCCATGACTCATGAAATCTTCTCAGAACATACCCCTGTTGTTAAGCGATACATGACTGTACTTTTTTTAAAAAGTCCAAGGATATA | 0.45 ratio
TGTACCTAATTTTTTAAAATCATATTTATAAACTAAAATAGATACTCTAGGATATGTCAAGGAGCTAAGGAAATCATTTAGTTTACTATTTGGATGTTTACACTGAATCTTCAAAGTGTTACATTTTCTTAAAAGAAAATGTTAAAGCATATGTGGCATTTAGTCAAATGTATATGAATATGTATTTATGGCC | 0.194 ratio
CAAGGCTGCTCACCCACTTCTTTAACCATTCTTCAAAAAAGTGAGCTGTTGTTATTGAACTTTTTATTATTACTTAATTACAAGAAAAAACAAAGTAATCTACCAAAAAAATTATAGTGTTGAGAAAATGCCAAGGCTGTTCACCCACTTCTTTAACCATTCTTCAAATTTACCATATATATATTTTTTTGAC | -0.0035 ratio
ATCTTCCCCCTCTTCCTTGCCCCACCAGCTCACCTTCCCGGGTTATTTGCAGATAGGAAAATAAATAAAGCCGGCATTCGTTAACCCTCTTCTGGCGCAAACTGCTGTTTGCTCTGGATCTAACATGGTCCTTTGGCGAGGCGTGGCTCCGGGAGAGCAAAGCACCGTGTCAGGGCCATGATCCGGGCTCGCC | 0.339 ratio
TCAACTCAGACTGCTTGAAAAAGGAATAGTGAGTTCAAAGATGCAAAGATGCCAGCGGCTGCATGTTACATTTTTGAGAGGTAGCCTTCAAAGTAAACAAGAAAAATGGGATTTTTTATGTTAATATGTGATTCATTTTAGAAAGAATGTTTCTTCGCTTAGTCTCTCCACATAAGATACTTACAGGTTTCCA | 0.313 ratio
AAGTATCATAATGTGGGCTACTCACTAAAAAAAATTTTCTTCTTTTTTTTTTTCTCCCTGCTAAATATTTTCAGGATGAGTCAGTTGGTCTGTATTTGCATTGGGCATAAAATCAACATGCTAGTCAACTAGCTTTTTCTCTTTTCATTAAAGTAGTTTCTAGAGCAGAAAGTAGCAGAGGTGGAGGTGGTAA | 0.305 ratio
ATCTTCCCCCTCTTCCTTGCCCCACCAGCTCACCTTCCCGGGTATCTGCAAATAAGGAAAATAAATAAAGCCGGCATTCGTTAACCCTCTTCTGGCGCAAACTGCTGTTTACTTTGGATGAATCATGGTCCTTTGGCGACGCCAGGCTCCGGGAGAGCAAAGCACCGTGTCAGGGCCATGATCCGGGGTGGCC | 0.431 ratio

Set 6
Target: CCNB2, cyclin fold, Cln2 fusion (human)
Method: yeast growth competition, sequencing
Medium: yeast
Setting: weak parent motif
Relative to: not given
Direction: higher = stronger binding
Starting sequence: SAMHD1 docking peptide (human); ASKSRVQLFKDDP
Change | normalised enrichment score
D11C | 0.306
L8Y | 0.34
L8H | -0.273
K3M | 0.0523
D11Q | -0.14
S4A | 0.0989
S4E | -0.491
L8F | 0.089
Q7N | 0.35
D11N | 0.309
R5P | -0.678
V6G | 0.179
K3E | -0.297
Q7T | 0.0336
F9N | 0.393
K10Y | -0.255
F9L | 0.613
L8N | 0.258
V6D | -0.241
R5Y | -0.0192
L8E | 0.18
D12R | 0.177
V6P | -0.419
L8P | 0.331
D12F | -0.0455

Some of these lines once more (set 4):
Strand | median fluorescence [a.u.]
TTACGGTACGGCCTCCTGGCCGTACCGTAA | 642
TTACGGTCGTGCCTCCTGGCACGACCGTAA (5mC at 15 29) | 590
TTACGGTTATGCCTCCTGGCATAACCGTAA | 443
TTACCGTAATGCCTCCTGGCATTACGGTAA (5mC at 12) | 552
TTACGGCAATGCCTCCTGGCATTGCCGTAA (5mC at 14) | 504
TTACGGTACGGCCTCCTGGCCGTACCGTAA (5mC at 16) | 611
CGACGGTAATGCCTCCTGGCATTACCGTCG (5mC at 36) | 723
TTACTGTAATGCCTCCTGGCATTACAGTAA | 355
TTCCGGTAATGCCTCCTGGCATTACCGGAA | 591
TTATGGTAATGCCTCCTGGCATTACCATAA | 373
TAACGGTAATGCCTCCTGGCATTACCGTTA | 533
TTACGGTACTGCCTCCTGGCAGTACCGTAA (5mC at 16) | 632
TTACCGTAATGCCTCCTGGCATTACGGTAA (5mC at 32) | 715
TTACGGTAACGCCTCCTGGCGTTACCGTAA | 690
TTACGGCGATGCCTCCTGGCATCGCCGTAA (5mC at 14 30) | 531
